Results collected from several papers.
± marks the error that the study gave.
Technique: steady-state kinetics
B1: enzyme (Papaver somniferum, UniProt Q9SQ68); chain MESNGVPMITLSSGIRMPALGMGTAETMVKGTEREKLAFLKAIEVGYRHFDTAAAYQSEECLGEAIAEALQLGLIKSRDELFITSKLWCADAHADLVLPALQNSLRNLKLDYLDLYLIHHPVSLKPGKFVNEIPKDHILPMDYKSVWAAMEECQTLGFTRAIGVCNFSCKKLQELMAAAKIPPVVNQVEMSPTLHQKNLREYCKANNIMITAHSVLGAICAPWGSNAVMDSKVLHQIAVARGKSVAQVSMRWVYQQGASLVVKSFNEGRMKENLKIFDWELTAENMEKISEIPQSRTSSADFLLSPTGPFKTEEEFWDEKD
B2: protein N123D (Rhodopseudomonas palustris, UniProt Q6N3R9); chain MSNVRVLATDLAFPEGPVVMPDGSVVLVEIRAQQLTRVWPDGRKEVVAKVPGGPNGAALGPDGKMYICNNGGFGWFPSRGTMMPGAPAPHEYIGGSIQRVDLQSGEVETLFDKCGEHPLKGPDDLVFDKHGGLWFTDLGKRRARDMDVGAAYYIKPGMTEITEQVFGTLPLNGIGLSPDEATMYAAETPTGRLWAFDLSGPGEVKPRDVIYRGEKGKPICGLGGYQMFDSLAVEASGNVCVATLVSGCISVIAPDGTLVEQVPTGDRVTTNIAFGGPDLKTAYITLSGKGELIAMDWSRPGLPLNFLNK
B3: enzyme N1029G (Limosilactobacillus reuteri, UniProt Q5SBN3); chain INGQQYYIDPTTGQPRKNFLLQNGNDWIYFDKDTGAGTNALKLQFDKGTISADEQYRRGNEAYSYDDKSIENVNGYLTADTWYRPKQILKDGTTWTDSKETDMRPILMVWWPNTVTQAYYLNYMKQYGNLLPASLPSFSTDADSAELNHYSELVQQNIEKRISETGSTDWLRTLMHEFVTKNSMWNKDSENVDYGGLQLQGGFLKYVNSDLTKYANSDWRLMNRTATNIDGKNYGGAEFLLANDIDNSNPVVQAEELNWLYYLMNFGTITGNNPEANFDGIRVDAVDGVDVDLLSIARDYFNAAYNMEQSDASANKHINILEDWGWDDPAYVNKIGNPQLTMDDRLRNAIMDTLSGAPDKNQALNKLITQSLVNRANDNTENAVIPSYNFVRAHDSNAQDQIRQAIQAATGKPYGEFNLDDEKKGMEAYINDQNSTNKKWNLYNMPSAYTILLTNKDSVPRVYYGDLYQDGGQYMEHKTRYFDTITNLLKTRVKYVAGGQTMSVDKNGILTNVRFGKGAMNATDTGTDETRTEGIGVVISNNTNLKLNDGESVVLHMGAAHKNQKYRAVILTTEDGVKNYTNDTDAPVAYTDANGDLHFTNTNLDGQQYTAVRGYANPDVTGYLAVWVPAGAADDQDARTAPSDEAHTTKTAYRSNAALDSNVIYEGFSNFIYWPTTESERTNVRIAQNADLFKSWGITTFELAPQYNSSKDGTFLDSIIDNGYAFTDRYDLGMSTPNKYGSDEDLRNALQALHKAGLQAIADWVPDQIYNLPGKEAVTVTRSDDHGTTWEVSPIKNVVYITNTIGGGEYQKKYGGEFLDTLQKEYPQLFSQVYPVTQTTIDPSVKIKEWSAKYFNGTNILHRGAGYVLRSNDGKYYNLGTSTQQFLPSQLSVQDNEGYGFVKEGNNYHYYDENKQMVKDAFIQDSVGNWYYFDKNGNMVANQSPVEISSNGASGTYLFLNNGTSFRSGLVKTDAGTYYYDGDGRMVRNQTVSDGAMTYVLDENGKLVSESFDSSATEAHPLKPGDLNGQK
B4: enzyme N249W (Thermobifida fusca, UniProt Q47RK4); chain MTDVYILDAVRTPFGRYGGALSGIRPDDLAAHVLRALAERSPGLDPAAVDDVFFGDANGAGEDNRNVARMAALLAGWPTSVPGVTLNRLCGSGMESVIAANRAIAVGDASLAVAGGVESMSRAPWVLPKPAQGFPTGHETLYSTTLGWRMVNPAMPEQWTVSLGESTEQVAATYGISRAEQDAFALRSHERAARAWAEGVFDAEITQIPGAELERDESIRETSAEKLAALKPAFRPDGTITAGNASPLWDGAAALLIGDAAAAERVGREPLARIVSRGVAAVDPDVFGIGPVQAAEIALRRAGIGWDDLSVVELNEAFAAQSLACLKLWPDLDPEIVNPNGGAIAIGHPLGASGARIVGTLAHELHRRGGGWGLAAICIGVGQGLAVVLHR
B5: GlcAK1 (Arabidopsis thaliana, UniProt A0A1I9LRK4); chain KRVREEKMDPNSTVSGDGQATAAIEHRSFARIGFLGNPSDVYFGRTISLTIGNFWASVKLEPSEHLVIKPHPFHDLVQFTSLDHLLNRLQNEGYYGGVRLLMAICKVFRNYCKENDIQLHQANFSLSYDTNIPRQTGLSGSSAIVSAALNCLLDFYNVRHLIKVQVRPNIVLSAEKELGIVAGLQDRVAQVYGGLVHMDFSKEHMDKLGHGIYTPMDISLLPPLHLIYAENPSDSGKVHSMVRQRWLDGDEFIISSMKEVGSLAEEGRTALLNKDHSKLVELMNLNFDIRRRMFGDECLGAMNIEMVEVARRVGAASKFTGSGGAVVVFCPEGPSQVKLLEEECRKAGFTLQPVKIAPSCLNDSDIQTL
B6: nitrilase Y142F (Rhodococcus rhodochrous, UniProt A4LA85); chain MVEYTNTFKVAAVQAQPVWFDAAKTVDKTVSIIAEAARNGCELVAFPEVFIPGYPYHIWVDSPLAGMAKFAVRYHENSLTMDSPHVQRLLDAARDHNIAVVVGISERDGGSLYMTQLIIDADGQLVARRRKLKPTHVERSVFGEGNGSDISVYDMPFARLGALNCWEHFQTLTKYAMYSMHEQVHVASWPGMSLYQPEVPAFGVDAQLTATRMYALEGQTFVVCTTQVVTPEAHEFFCENEEQRKLIGRGGGFARIIGPDGRDLATPLAEDEEGILYADIDLSAITLAKQAADPVGHYSRPDVLSLNFNQRRTTPVNTPLSTIHATHTFVPQFGALDGVRELNGADEQRALPSTHSDETDRATASI
Sequence of UniProt Q33DQ2 (whole entry, looked up): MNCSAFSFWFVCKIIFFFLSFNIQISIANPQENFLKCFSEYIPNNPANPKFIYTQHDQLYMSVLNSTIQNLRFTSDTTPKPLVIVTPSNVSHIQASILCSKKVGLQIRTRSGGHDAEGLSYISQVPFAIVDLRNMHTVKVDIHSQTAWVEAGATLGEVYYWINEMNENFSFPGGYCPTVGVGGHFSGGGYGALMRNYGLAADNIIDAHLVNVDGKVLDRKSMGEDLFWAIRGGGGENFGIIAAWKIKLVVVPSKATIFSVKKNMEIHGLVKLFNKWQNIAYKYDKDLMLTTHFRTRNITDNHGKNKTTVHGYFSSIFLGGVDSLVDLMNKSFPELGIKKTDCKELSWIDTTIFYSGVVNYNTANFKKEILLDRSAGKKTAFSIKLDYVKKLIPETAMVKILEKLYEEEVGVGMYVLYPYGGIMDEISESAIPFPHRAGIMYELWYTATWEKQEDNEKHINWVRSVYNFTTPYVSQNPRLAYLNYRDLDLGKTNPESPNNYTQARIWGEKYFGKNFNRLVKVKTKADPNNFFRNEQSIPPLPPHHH

Substance = B1 (enzyme); substrate = COc1ccc2c3c1O[C@H]1[C@@H](O)C=C[C@H]4[C@@H](C2)N(C)CC[C@@]341; kcat = 0.81 ± 0.03 s⁻¹
Substance = B2 (protein N123D); substrate = O=C1CCc2ccccc2O1; conditions = pH 8, NaCl 150 mM, no saturation, with: CaCl2 1 mM; kcat = > 2.4 s⁻¹
Substance = B3 (enzyme N1029G); substrate = OC[C@H]1O[C@@](CO)(O[C@H]2O[C@H](CO)[C@@H](O)[C@H](O)[C@H]2O)[C@@H](O)[C@@H]1O; conditions = pH 4.7, 37 °C; kcat = 32.7 ± 1.2 s⁻¹
Substance = B4 (enzyme N249W); substrate = CC(C)(COP(=O)(O)OP(=O)(O)OC[C@H]1O[C@@H](n2cnc3c(N)ncnc32)[C@H](O)[C@@H]1OP(=O)(O)O)[C@@H](O)C(=O)NCCC(=O)NCCSC(=O)CC(=O)O; conditions = pH 7.4, 37 °C; kcat = 0.0035 ± 0.004 s⁻¹
Substance = CBCAS (Cannabis sativa, UniProt Q33DQ2); substrate = CCCCCc1cc(O)c(C/C=C(\C)CCC=C(C)C)c(O)c1C(=O)O; conditions = pH 5.5, 40 °C; kcat = 0.02 s⁻¹
Substance = B5 (GlcAK1); substrate = Nc1ncnc2c1ncn2[C@@H]1O[C@H](COP(=O)(O)OP(=O)(O)OP(=O)(O)O)[C@@H](O)[C@H]1O; conditions = pH 7.5, 25 mM KCl, Hill fit, with: 1 mM GlcA; 10 mM MgCl2; kcat = 8.5 s⁻¹
Substance = OXA-48 (Klebsiella pneumoniae, UniProt Q6XEC0); substrate = C[C@@H](O)[C@H]1C(=O)N2C(C(=O)O)=C(S[C@@H]3CN[C@H](CNS(N)(=O)=O)C3)[C@H](C)[C@H]12; conditions = pH 7.2, 30 °C; kcat = 0.066 ± 0.002 s⁻¹
Substance = azu N36H/Q28M/Q34H (Pseudomonas aeruginosa); substrate = O=NO; conditions = pH 6.35; kcat = 0.00633 s⁻¹
Substance = B6 (nitrilase Y142F); substrate = N#CCCCCC#N; conditions = pH 7.5, 25 °C; kcat = 0.0001767 ± 1.67e-06 s⁻¹
Substance = Cj1427c (Campylobacter jejuni, UniProt Q0P8I7); substrate = O=C(O)CCC(=O)C(=O)O; conditions = pH 7.4, 30 °C, apparent; kcat = 0.55 ± 0.01 s⁻¹

A few entries again:
Substance = CBCAS (Cannabis sativa, UniProt Q33DQ2); substrate = CCCCCc1cc(O)c(C/C=C(\C)CCC=C(C)C)c(O)c1C(=O)O; conditions = pH 5.5, 40 °C; kcat = 0.02 s⁻¹
Substance = B5 (GlcAK1); substrate = Nc1ncnc2c1ncn2[C@@H]1O[C@H](COP(=O)(O)OP(=O)(O)OP(=O)(O)O)[C@@H](O)[C@H]1O; conditions = pH 7.5, 25 mM KCl, Hill fit, with: 1 mM GlcA; 10 mM MgCl2; kcat = 8.5 s⁻¹
